Results gathered from unrelated publications.
Lines come from different studies, so protocols differ. “And” joins repeats or separate records; there may be more than shown. ± marks the error that the study gave.
Chymotrypsinogen A: Chymotrypsinogen A (Bos taurus, UniProt P00766)
SIGMAR1: Sigma non-opioid intracellular receptor 1 (SIGMAR1, Homo sapiens, UniProt Q99720)
Chain of UniProt Q99720 (whole entry, looked up): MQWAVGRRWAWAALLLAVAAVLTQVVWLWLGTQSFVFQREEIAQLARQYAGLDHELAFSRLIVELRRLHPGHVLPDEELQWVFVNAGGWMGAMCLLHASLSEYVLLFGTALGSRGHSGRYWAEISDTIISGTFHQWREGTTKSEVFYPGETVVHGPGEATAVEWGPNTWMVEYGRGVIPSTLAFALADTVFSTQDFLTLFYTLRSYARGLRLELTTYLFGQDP
ache: Acetylcholinesterase (ache, Electrophorus electricus, UniProt O42275)
Chain of UniProt O42275 (whole entry, looked up): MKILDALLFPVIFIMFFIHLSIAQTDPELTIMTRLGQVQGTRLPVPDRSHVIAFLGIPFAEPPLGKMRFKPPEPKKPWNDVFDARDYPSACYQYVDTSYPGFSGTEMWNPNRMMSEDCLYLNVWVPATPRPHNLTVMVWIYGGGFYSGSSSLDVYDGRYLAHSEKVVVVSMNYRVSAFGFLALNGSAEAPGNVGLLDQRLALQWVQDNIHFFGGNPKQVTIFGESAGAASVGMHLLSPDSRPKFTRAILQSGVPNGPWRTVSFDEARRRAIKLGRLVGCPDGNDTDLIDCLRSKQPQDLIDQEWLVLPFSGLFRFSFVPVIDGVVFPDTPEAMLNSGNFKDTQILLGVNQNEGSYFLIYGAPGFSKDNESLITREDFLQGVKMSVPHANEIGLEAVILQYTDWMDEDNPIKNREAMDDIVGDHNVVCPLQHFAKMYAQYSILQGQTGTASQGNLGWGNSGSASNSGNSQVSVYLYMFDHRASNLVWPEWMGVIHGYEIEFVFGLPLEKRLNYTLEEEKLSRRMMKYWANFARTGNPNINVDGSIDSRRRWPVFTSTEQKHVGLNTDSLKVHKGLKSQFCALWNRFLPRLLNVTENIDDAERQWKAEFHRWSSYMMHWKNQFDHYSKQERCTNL
OPRK1: Kappa-type opioid receptor (OPRK1, Homo sapiens, UniProt P41145)
Chain of UniProt P41145 (whole entry, looked up): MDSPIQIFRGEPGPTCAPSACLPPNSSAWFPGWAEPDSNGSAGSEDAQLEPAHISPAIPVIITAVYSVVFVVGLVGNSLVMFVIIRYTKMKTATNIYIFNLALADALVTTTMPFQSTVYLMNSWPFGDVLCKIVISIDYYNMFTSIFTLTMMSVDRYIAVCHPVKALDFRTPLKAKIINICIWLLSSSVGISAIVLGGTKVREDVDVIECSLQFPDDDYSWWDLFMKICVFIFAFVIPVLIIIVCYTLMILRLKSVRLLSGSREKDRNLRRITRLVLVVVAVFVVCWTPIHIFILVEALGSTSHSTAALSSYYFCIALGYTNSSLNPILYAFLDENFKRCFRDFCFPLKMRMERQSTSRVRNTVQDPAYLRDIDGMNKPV
SLC6A3: Sodium-dependent dopamine transporter (SLC6A3, Homo sapiens, UniProt Q01959)
Chain of UniProt Q01959 (whole entry, looked up): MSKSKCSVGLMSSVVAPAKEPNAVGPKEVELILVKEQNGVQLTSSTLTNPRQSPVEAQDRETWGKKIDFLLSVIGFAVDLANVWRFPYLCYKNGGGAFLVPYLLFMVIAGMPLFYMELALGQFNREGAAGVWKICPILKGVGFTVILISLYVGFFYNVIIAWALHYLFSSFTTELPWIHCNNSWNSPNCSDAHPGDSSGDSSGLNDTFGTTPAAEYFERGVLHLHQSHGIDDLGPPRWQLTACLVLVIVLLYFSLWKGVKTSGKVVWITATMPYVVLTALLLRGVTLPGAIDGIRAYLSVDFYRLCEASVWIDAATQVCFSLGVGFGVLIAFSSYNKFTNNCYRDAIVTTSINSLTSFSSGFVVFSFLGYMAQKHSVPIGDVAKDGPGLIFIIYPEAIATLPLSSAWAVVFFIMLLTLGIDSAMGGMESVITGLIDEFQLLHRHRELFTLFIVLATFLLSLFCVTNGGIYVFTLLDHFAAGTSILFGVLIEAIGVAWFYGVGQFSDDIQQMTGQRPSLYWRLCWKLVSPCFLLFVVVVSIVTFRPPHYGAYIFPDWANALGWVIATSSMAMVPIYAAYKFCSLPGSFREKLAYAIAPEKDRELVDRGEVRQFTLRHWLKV
Chain of UniProt P33913 (whole entry, looked up): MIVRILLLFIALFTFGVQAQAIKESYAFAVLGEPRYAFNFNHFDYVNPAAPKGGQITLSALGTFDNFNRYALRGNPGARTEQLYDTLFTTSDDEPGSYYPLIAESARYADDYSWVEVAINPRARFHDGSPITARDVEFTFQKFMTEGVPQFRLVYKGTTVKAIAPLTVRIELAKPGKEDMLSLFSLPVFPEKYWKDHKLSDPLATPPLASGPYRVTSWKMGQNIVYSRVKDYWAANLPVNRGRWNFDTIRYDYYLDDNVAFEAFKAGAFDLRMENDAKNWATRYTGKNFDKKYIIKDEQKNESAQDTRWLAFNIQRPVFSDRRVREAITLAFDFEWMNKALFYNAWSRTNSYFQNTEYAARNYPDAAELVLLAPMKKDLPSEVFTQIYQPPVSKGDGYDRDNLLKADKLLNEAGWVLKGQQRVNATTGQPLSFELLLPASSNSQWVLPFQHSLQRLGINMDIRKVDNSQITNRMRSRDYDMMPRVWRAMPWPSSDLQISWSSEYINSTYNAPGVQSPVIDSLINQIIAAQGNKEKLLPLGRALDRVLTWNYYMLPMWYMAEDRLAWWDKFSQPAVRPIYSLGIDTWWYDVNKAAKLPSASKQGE
Chain of UniProt P08246 (whole entry, looked up): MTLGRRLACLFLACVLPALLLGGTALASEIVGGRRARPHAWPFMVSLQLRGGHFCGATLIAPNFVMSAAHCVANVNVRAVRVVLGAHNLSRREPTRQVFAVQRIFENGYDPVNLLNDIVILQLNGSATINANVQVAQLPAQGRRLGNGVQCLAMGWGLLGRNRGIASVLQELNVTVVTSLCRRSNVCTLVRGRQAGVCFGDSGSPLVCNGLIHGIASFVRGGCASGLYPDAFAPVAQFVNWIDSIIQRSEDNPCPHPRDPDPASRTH
Chain of UniProt P22413 (whole entry, looked up): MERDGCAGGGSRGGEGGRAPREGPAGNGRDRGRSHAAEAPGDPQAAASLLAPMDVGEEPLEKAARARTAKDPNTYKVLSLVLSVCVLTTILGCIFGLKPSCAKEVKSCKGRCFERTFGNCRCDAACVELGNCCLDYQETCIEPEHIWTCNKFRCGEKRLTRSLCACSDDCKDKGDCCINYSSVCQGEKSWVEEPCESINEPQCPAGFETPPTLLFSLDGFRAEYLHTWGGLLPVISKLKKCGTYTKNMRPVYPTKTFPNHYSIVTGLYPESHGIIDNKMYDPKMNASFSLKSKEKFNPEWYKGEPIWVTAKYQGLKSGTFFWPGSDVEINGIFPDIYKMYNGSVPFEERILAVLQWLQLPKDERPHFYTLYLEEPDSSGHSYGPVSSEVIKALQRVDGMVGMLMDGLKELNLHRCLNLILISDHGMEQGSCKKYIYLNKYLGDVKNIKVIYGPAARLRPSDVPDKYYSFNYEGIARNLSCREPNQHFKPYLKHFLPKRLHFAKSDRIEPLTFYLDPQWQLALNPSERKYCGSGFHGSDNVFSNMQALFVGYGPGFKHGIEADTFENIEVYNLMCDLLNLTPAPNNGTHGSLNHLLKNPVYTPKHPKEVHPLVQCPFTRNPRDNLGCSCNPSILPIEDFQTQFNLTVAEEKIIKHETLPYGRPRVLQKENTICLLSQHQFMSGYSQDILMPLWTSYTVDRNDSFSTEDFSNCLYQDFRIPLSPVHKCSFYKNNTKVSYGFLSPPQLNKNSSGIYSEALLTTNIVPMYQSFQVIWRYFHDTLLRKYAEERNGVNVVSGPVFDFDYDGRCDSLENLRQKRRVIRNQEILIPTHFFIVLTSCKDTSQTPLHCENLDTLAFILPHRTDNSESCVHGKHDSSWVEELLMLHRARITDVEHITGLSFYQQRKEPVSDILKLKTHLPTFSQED
Chain of UniProt P28222 (whole entry, looked up): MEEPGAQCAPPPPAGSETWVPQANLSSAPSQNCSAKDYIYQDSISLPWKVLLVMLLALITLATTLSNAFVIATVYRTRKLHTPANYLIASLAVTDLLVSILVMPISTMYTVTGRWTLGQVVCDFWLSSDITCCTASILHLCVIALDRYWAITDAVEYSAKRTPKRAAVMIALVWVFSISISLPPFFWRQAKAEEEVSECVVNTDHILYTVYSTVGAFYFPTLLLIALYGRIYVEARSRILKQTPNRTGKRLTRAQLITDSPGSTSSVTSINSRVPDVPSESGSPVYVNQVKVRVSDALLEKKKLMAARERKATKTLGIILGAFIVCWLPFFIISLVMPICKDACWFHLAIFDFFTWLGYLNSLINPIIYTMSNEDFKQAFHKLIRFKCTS
Chain of UniProt P21728 (whole entry, looked up): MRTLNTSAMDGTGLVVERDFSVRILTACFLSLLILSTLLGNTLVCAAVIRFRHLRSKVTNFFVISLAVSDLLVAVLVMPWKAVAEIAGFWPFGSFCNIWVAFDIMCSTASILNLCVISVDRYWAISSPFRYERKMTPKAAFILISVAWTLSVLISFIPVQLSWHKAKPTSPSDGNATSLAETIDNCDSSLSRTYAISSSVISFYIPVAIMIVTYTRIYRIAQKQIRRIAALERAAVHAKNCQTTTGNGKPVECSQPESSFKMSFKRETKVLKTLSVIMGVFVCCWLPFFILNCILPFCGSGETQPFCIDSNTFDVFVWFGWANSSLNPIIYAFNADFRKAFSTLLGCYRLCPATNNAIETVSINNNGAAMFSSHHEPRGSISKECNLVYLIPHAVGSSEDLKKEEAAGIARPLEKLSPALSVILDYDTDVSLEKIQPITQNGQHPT

F[B-](F)(F)c1cccc(/N=N/c2ccccc2I)c1
Ki (Chymotrypsinogen A; enzyme activity, inhibitor; pH 7.81, 25 °C, cis-enriched photostationary state, with: Suc-AAPF-AMC): 133 µM

CC(C)n1nc(-c2ccc3cc(OCc4cccc(Cl)c4)ccc3c2)c2c(N)ncnc21
Ki (Tyrosine-protein kinase CSK (CSK, Homo sapiens, UniProt P41240, T266M); enzyme activity, inhibitor): 0.848 µM

CSCC[C@H](N)C(=O)N[C@@H](CCCNC(=N)N)C(=O)N[C@H](C(=O)NCC(=O)N[C@@H](CC(N)=O)C(=O)N[C@@H](C)C(=O)N[C@@H](CC(N)=O)C(=O)O)[C@@H](C)O
Ki (Uncharacterized protein YejA (yejA, Escherichia coli, UniProt P33913); binding, competition fluorescence polarization): ~6.47 µM and 6.47 µM

CC(=O)NCCCC[C@H](NC(=O)[C@H](CCCNC(=N)NCCC[C@H]1O[C@@H](n2cnc3c(N)ncnc32)[C@H](O)[C@@H]1O)NC(=O)[C@@H]1CCCN1C(=O)[C@H](C)NC(=O)[C@H](CCCCN)NC(=O)CNC(=O)CNC(=O)[C@@H](NC(=O)[C@H](CO)NC(C)=O)[C@@H](C)O)C(=O)N[C@@H](CCC(N)=O)C(=O)N[C@@H](CC(C)C)C(=O)N[C@@H](C)C(=O)N[C@H](C(=O)N[C@@H](CCCCN)C(=O)N[C@@H](C)C(=O)N[C@@H](C)C(N)=O)[C@@H](C)O (relative stereo)
Ki (Histone-arginine methyltransferase CARM1 (CARM1, Homo sapiens, UniProt Q86X55); enzyme activity, inhibitor): 0.028 µM

C[C@]12COc3ccc(OCc4cccc(Cl)c4)cc3[C@H]1CCN2
Ki (SIGMAR1; cell-free assay, radioligand): 0.0017 µM

O=C1c2ccccc2CCCN1CCCCN1CCN(c2cccc(Cl)c2Cl)CC1
Ki (5-hydroxytryptamine receptor 1B (HTR1B, Homo sapiens, UniProt P28222); ligand displacement, radioligand): 0.073 µM

C[C@]12COc3ccc(OCCc4ccccc4)cc3[C@H]1CCN2
Ki (SIGMAR1; cell-free assay, radioligand): 0.0033 µM

O=c1ccn([C@@H]2O[C@H](CO[P@](O)(=S)OP(=O)(O)OP(=O)(O)O)[C@@H](O)[C@H]2O)c(=S)[nH]1
Ki (Ectonucleotide pyrophosphatase/phosphodiesterase family member 1 (ENPP1, Homo sapiens, UniProt P22413); enzyme activity, inhibitor): 0.109 µM

F[B-](F)(F)c1cccc(/N=N/c2ccccc2)c1
Ki (Chymotrypsinogen A; enzyme activity, competitive inhibitor; buffer with 2 vol% DMSO; pH 7.81, 25 °C, thermally adapted trans state, with: Suc-AAPF-AMC): 3.06 µM and 3.1 µM

O=S(=O)(N/N=C/c1ccc(OS(=O)(=O)c2cc(Cl)ccc2Cl)cc1)c1cc(Cl)ccc1Cl
Ki (ache; enzyme activity, inhibitor, Ellman): 0.00958 µM

C[C@@H](CN1CCC(Cc2ccccc2)CC1)[C@@H](O)c1ccc(O)cc1
Ki (OPRK1; cell-free assay): 3.13 µM

CC(C)C[C@H](NC(=O)CNC(=O)[C@H](CCC(N)=O)NC(=O)[C@H](CC(C)C)NC(=O)[C@H](CC(C)C)NC(=O)[C@H](CCCNC(=N)N)NC(=O)[C@H](CCC(N)=O)NC(=O)[C@H](CC(C)C)NC(=O)[C@H](CCCNC(=N)N)NC(=O)[C@H](C)NC(=O)[C@H](CO)NC(=O)[C@H](CC(=O)O)NC(=O)[C@H](CCC(N)=O)NC(=O)[C@H](CC(C)C)NC(=O)[C@H](CCCNC(=N)N)NC(=O)[C@H](CO)NC(=O)[C@H](Cc1ccc(O)cc1)NC(=O)[C@H](CCC(=O)O)NC(=O)[C@H](CO)NC(=O)[C@@H](NC(=O)[C@H](Cc1ccccc1)NC(=O)[C@@H](NC(=O)[C@H](Cc1ccc(C(=O)c2ccccc2)cc1)NC(=O)[C@H](CC(=O)O)NC(=O)[C@H](CO)NC(=O)[C@@H](N)Cc1c[nH]cn1)[C@@H](C)O)[C@@H](C)O)C(=O)N[C@H](C(N)=O)C(C)C
Ki (Sctr (Rattus norvegicus, UniProt P23811); ligand displacement in cells, radioligand): > 1 µM

COc1ccccc1N1CCN(CCCCN2CCCc3ccccc3C2=O)CC1
Ki (Alpha-1D adrenergic receptor (ADRA1D, Homo sapiens, UniProt P25100); ligand displacement, radioligand): 0.0376 µM

Cc1cc(O)cc(C)c1C[C@H](N)C(=O)N[C@H](CCCNC(=N)N)C(=O)N[C@@H](Cc1ccccc1)C(=O)N(C)CC(=O)N(C)Cc1cc(C(F)(F)F)cc(C(F)(F)F)c1
Ki (Delta-type opioid receptor (OPRD1, Homo sapiens, UniProt P41143, A309I)): 0.00553 ± 0.00059 µM

CC(C)C[C@H](NC(=O)[C@H](CCCCN)NC(=O)[C@H](CCCCN)NC(=O)Cc1cccc(CNC(=O)[C@@H](C)NC(=N)N)c1)B(O)O
Ki (Neutrophil elastase (ELANE, Homo sapiens, UniProt P08246); enzyme activity, inhibitor, fluorescence): ~1 µM

COC(=O)[C@H]1[C@@H](c2ccc(Cl)c(Cl)c2)C[C@@H]2CC[C@H]1N2CCOc1ccc2cc3ccccc3cc2c1
Ki (SLC6A3; ligand displacement, radioligand; pH 7.4): 0.05 µM

C[C@@H](Cc1ccsc1)NC(=O)NC[C@H](Cc1ccc(O)cc1)N(C)C
Ki (Neurotensin receptor type 2 (NTSR2, Homo sapiens, UniProt O95665)): > 50 µM

CCCNC(=O)[C@H]1O[C@@H]1C(=O)N[C@H](C(=O)N1CCC[C@H]1C(=O)OCC1=C2C(C)=CC(C)=[N+]2[B-](C)(C)n2c(C)cc(C)c21)[C@@H](C)CC
Ki (Cathepsin B (CTSB, Homo sapiens, UniProt P07858); enzyme activity, irreversible inhibitor; pH 5.5, 25 °C, irradiated 395-750 nm, 15 min, with: Z-Arg-Arg-AMC): 0.51 ± 0.009 µM

COC(=O)[C@H]1[C@@H](c2ccc(Cl)c(Cl)c2)C[C@@H]2CC[C@H]1N2CCOc1c2ccccc2cc2ccccc12
Ki (SLC6A3; ligand displacement, radioligand; pH 7.4): 0.0083 µM

CC(=O)c1cccc(/N=N/c2cccc([B-](F)(F)F)c2)c1
Ki (Chymotrypsinogen A; enzyme activity, inhibitor; pH 7.81, 25 °C, cis-enriched photostationary state, with: Suc-AAPF-AMC): 257 µM

O=C(Cc1ccc(Cl)c(Cl)c1)N1CCN[C@@H]2COC[C@H](N3CCCC3)[C@H]21
Ki (OPRK1; cell-free assay): 0.05 µM

CCCCc1ccc(/N=N/c2cccc([B-](F)(F)F)c2)cc1
Ki (Chymotrypsinogen A; enzyme activity, inhibitor; pH 7.81, 25 °C, cis-enriched photostationary state, with: Suc-AAPF-AMC): > 2000 µM

Cc1ccc(S(=O)(=O)Oc2ccc(/C=N/NS(=O)(=O)c3ccc(Cl)cc3)cc2)cc1
Ki (ache; enzyme activity, inhibitor, Ellman): 0.0374 µM

COC(=O)[C@H]1[C@@H](c2ccc(Cl)c(Cl)c2)C[C@@H]2CC[C@H]1N2CCCc1ccc2cc3ccccc3cc2c1
Ki (SLC6A3; ligand displacement, radioligand; pH 7.4): 0.12 µM

CC(C)[C@@H]1NC(=O)[C@H](Cc2ccccc2)NC(=O)[C@H](Cc2ccc(O)cc2)NC(=O)CCSSCCC(=O)N[C@@H](Cc2ccc(O)cc2)C(=O)N[C@@H](Cc2ccccc2)C(=O)N[C@@H](C(C)C)C(=O)N[C@@H](CC(N)=O)C(=O)N[C@H](C(=O)N2CCC[C@H]2C(=O)N[C@H](CCCNC(=N)N)C(=O)NCC(N)=O)CSSC[C@@H](C(=O)N2CCC[C@H]2C(=O)N[C@H](CCCNC(=N)N)C(=O)NCC(N)=O)NC(=O)[C@H](CC(N)=O)NC1=O
Ki (Vasopressin V2 receptor (AVPR2, Homo sapiens, UniProt P30518); ligand displacement, radioligand; cell membranes): 0.0042 µM

COc1ccc(S(=O)(=O)Oc2ccc(/C=N/NS(=O)(=O)c3cc(Cl)ccc3Cl)cc2)cc1
Ki (ache; enzyme activity, inhibitor, Ellman): 0.0241 µM

CCOC(=O)C(CC)(CC)NC(=O)c1ccc(C2CC2)c(Cc2ccc(F)cc2)n1
Ki (Cannabinoid receptor 2 (CNR2, Homo sapiens, UniProt P34972); ligand displacement, radioligand; cell membranes): 0.0002 µM

CN(C)[C@H](CNC(=O)/C=C/c1cccc2ccccc12)Cc1ccc(O)cc1
Ki (Muscarinic acetylcholine receptor M3 (CHRM3, Homo sapiens, UniProt P20309)): 15 ± 14 µM

Cc1c(/N=N/c2ccccc2)cccc1[B-](F)(F)F
Ki (Chymotrypsinogen A; enzyme activity, competitive inhibitor; buffer with 2 vol% DMSO; pH 7.81, 25 °C, thermally adapted trans state, with: Suc-AAPF-AMC): 138 µM

CN(CC1CC1)[C@H]1COC[C@H]2NCCN(C(=O)Cc3ccc(Cl)c(Cl)c3)[C@@H]21 (relative stereo)
Ki (OPRK1; cell-free assay): 0.21 µM

Cc1cc(C)cc(/N=N/c2cccc([B-](F)(F)F)c2)c1
Ki (Chymotrypsinogen A; enzyme activity, inhibitor; pH 7.81, 25 °C, cis-enriched photostationary state, with: Suc-AAPF-AMC): 199 µM and 200 µM

COc1cc2c(cc1O)C(CCc1ccc(Cl)cc1)N(C)CC2 (stereo not drawn)
Ki (D(1A) dopamine receptor (DRD1, Homo sapiens, UniProt P21728); cell-free assay, radioligand): 0.27 µM

Cc1ccc(/N=N/c2cccc([B-](F)(F)F)c2)cc1
Ki (Chymotrypsinogen A; enzyme activity, inhibitor; pH 7.81, 25 °C, cis-enriched photostationary state, with: Suc-AAPF-AMC): 35.8 µM

COC(=O)[C@H]1[C@@H](c2ccc(Cl)cc2)C[C@@H]2CC[C@H]1N2CCCc1ccc2cc3ccccc3cc2c1
Ki (SLC6A3; binding; COS-7 cells transfected; with: [3H]WIN35,428; deprotonated form): 4.8e-05 µM

F[B-](F)(F)c1ccc(/N=N/c2ccccc2)cc1
Ki (Chymotrypsinogen A; enzyme activity, competitive inhibitor; buffer with 2 vol% DMSO; pH 7.81, 25 °C, thermally adapted trans state, with: Suc-AAPF-AMC): 234 µM

N[C@H]1CCSC1=O
Ki (Carbonic anhydrase 9 (CA9, Homo sapiens, UniProt Q16790); CO2 hydration activity, inhibitor, stopped-flow CO2 hydration; room temperature preincubation): > 100 µM

A few entries again:
Cc1cc(C)cc(/N=N/c2cccc([B-](F)(F)F)c2)c1
Ki (Chymotrypsinogen A; enzyme activity, inhibitor; pH 7.81, 25 °C, cis-enriched photostationary state, with: Suc-AAPF-AMC): 199 µM and 200 µM

COc1cc2c(cc1O)C(CCc1ccc(Cl)cc1)N(C)CC2 (stereo not drawn)
Ki (D(1A) dopamine receptor (DRD1, Homo sapiens, UniProt P21728); cell-free assay, radioligand): 0.27 µM

Cc1ccc(/N=N/c2cccc([B-](F)(F)F)c2)cc1
Ki (Chymotrypsinogen A; enzyme activity, inhibitor; pH 7.81, 25 °C, cis-enriched photostationary state, with: Suc-AAPF-AMC): 35.8 µM

COC(=O)[C@H]1[C@@H](c2ccc(Cl)cc2)C[C@@H]2CC[C@H]1N2CCCc1ccc2cc3ccccc3cc2c1
Ki (SLC6A3; binding; COS-7 cells transfected; with: [3H]WIN35,428; deprotonated form): 4.8e-05 µM
